Measurements gathered from unrelated publications.
Numbered parts are unrelated; each lists some results of a single study. “And” joins repeats or separate records; there may be more than shown.
UniProt P31645, sequence (whole entry, looked up): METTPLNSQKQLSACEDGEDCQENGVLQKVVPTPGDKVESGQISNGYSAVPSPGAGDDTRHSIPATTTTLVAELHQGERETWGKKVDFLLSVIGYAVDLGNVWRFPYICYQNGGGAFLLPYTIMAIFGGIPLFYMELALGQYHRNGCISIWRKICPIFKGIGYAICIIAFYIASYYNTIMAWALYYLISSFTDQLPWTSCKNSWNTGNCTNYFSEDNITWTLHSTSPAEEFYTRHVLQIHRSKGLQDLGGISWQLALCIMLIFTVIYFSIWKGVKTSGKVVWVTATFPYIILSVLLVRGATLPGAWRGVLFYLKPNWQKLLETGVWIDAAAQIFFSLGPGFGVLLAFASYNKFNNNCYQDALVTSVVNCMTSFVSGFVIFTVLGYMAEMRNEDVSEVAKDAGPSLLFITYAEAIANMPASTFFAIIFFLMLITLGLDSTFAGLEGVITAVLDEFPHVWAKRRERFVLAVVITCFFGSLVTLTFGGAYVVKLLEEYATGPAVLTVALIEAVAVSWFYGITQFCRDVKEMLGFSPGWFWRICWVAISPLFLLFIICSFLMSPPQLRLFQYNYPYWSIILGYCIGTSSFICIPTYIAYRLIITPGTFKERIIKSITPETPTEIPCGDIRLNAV

Sample 1
Cell line: A-375
Tested at: 100 µM
Time: 36 h
| SMILES | viability |
| --- | --- |
| CC(=O)Oc1cc2c(s1)CCN(C(C(=O)C1CC1)c1ccccc1F)C2 (stereo not shown) | 105% |
| CN1[C@@H]2CCC[C@H]1C[C@@H](NC(=O)c1nn(C)c3ccccc13)C2 | 107% |
| c1ccc([C@H]2CN3CCSC3=N2)cc1 | 104% |
| CCOC(=O)C1=C(C)NC(C)=C(C(=O)OCC)C1c1ccccc1/C=C/C(=O)OC(C)(C)C | 2.89% |
| CN[C@@H]1[C@H](O)[C@H](NC)[C@H]2O[C@@]3(O)C(=O)C[C@@H](C)O[C@H]3O[C@@H]2[C@H]1O | 94.2% and 112% |
| Nc1ncn([C@@H]2O[C@H](CO)[C@@H](O)[C@H]2O)c(=O)n1 | 35.4% |
| CC(C)[C@@H]1CC[C@@H](C)C[C@H]1O | 107% |
| CO/N=C(\C(=O)N[C@@H]1C(=O)N2C(C(=O)O)=C(CSc3nc(=O)c(=O)[nH]n3C)CS[C@H]12)c1csc(N)n1 | 110% |

Sample 2
Structure (SMILES): CC(=O)N[C@@H](Cc1c[nH]c2ccccc12)C(=O)N[C@@H](CCC(=O)C=[N+]=[N-])C(=O)OC(C)C
Species: mouse, EL4 tumour-bearing
Medium: EL4 tumour
Dose: dose not given
Relative to: vehicle
| item | log2 fold change |
| --- | --- |
| 3-hydroxykynurenine | -1.94 |
| S-methylcysteine sulfoxide | -0.894 |
| 2'-deoxycytidine | 0.473 |
| N-methyl-GABA | -0.144 |
| leucine | 0.428 |
| cinnamoylglycine | 1.06 |
| heme | -0.0342 |
| 2-phosphoglycerate | 0.714 |

Mixed results
| SMILES | tested on | assay | system | conditions | measurement | result |
| --- | --- | --- | --- | --- | --- | --- |
| C=CC(=O)N1CCN(c2nc(=O)n(-c3c(C)ccnc3C(C)C)c3nc(-c4c(O)cccc4F)c(F)cc23)[C@@H](C)C1 | GTPase HRas (HRAS, Homo sapiens, UniProt P01112, G12C) |  |  |  | IC50 | 33 nM |
| COc1ccc(-c2c(Nc3ccccn3)[nH]c3c(C4=CCCCC4)c(-c4ccccc4)nn3c2=O)cc1 |  | LC-MS/MS | human, plasma | oral, 50 mg once daily | AUMC(0-tau) | 408000 h²·ng/mL and 372000 h²·ng/mL and 382000 h²·ng/mL |
| Cc1c(NC(=O)c2cc(C(N)=O)nc3cc(F)ccc23)c(C(F)(F)F)nn1Cc1ccc(C(C)(C)C)cc1 | Sodium-dependent serotonin transporter (SLC6A4, Homo sapiens, UniProt P31645) | binding, radioligand binding |  | 10 µM | inhibition | -3.13% |

A few entries again (sample 2):
| item | log2 fold change |
| --- | --- |
| 3-hydroxykynurenine | -1.94 |
| S-methylcysteine sulfoxide | -0.894 |
